Measurements gathered from unrelated publications.
Lines come from different studies, so protocols differ. Numbers after ± are the reported error.

COC(=O)[C@H]1[C@@H](OC(=O)c2ccccc2)C[C@@H]2CC[C@H]1N2 — AUC(0-t) (LC-MS/MS; Sprague-Dawley rat, whole blood; intraperitoneal, 20 mg/kg of cocaine, up to 180 min): 0.108 ± 0.00667 µg·h/mL
Cc1ccc(S(=O)(=O)Nc2c(N[C@H]3CC[C@H](NC(=O)Nc4ccc(F)c(Cl)c4)CC3)c(=O)c2=O)cc1 — AUC(0-t) (rat, plasma; intravenous, 10 mg/kg): 1.84 µM·h
CC(C)[C@@H](CN1CC[C@@](C)(c2cccc(O)c2)[C@@H](C)C1)NC(=O)[C@@H]1Cc2ccc(O)cc2CN1C — AUC(0-t) (rat, brain; ip, 5 mg/kg, to 168 h): 325 ng·h/g
CCC[C@@](N)(CO)CCc1ccc(OCCCCCC(C)C)cc1 — AUC(0-t) (male Sprague-Dawley rat, plasma; intravenous, dose not given): 1.77 µM·h
C=CC[N+]1([C@H]2C[C@H]3[C@@H]4CC[C@H]5C[C@H](O)[C@@H](N6CCOCC6)C[C@]5(C)[C@H]4CC[C@]3(C)[C@H]2OC(C)=O)CCCC1 — AUC(0-t) (Sprague Dawley rat, plasma; intravenous, dose not given, added: sugammadex 5 mg/kg IV): 0.0397 µg·h/mL
Cc1cc(C)nc(Nc2ncc(C(=O)NCCc3c(C)[nH]c4ccccc34)cn2)c1 — AUC(0-t) (female rat, plasma; oral, 500 mg/kg/day, day 7): 36.9 µg·h/mL
CN1CC[C@]23c4c5ccc(O)c4O[C@H]2[C@@H](O[C@@H]2O[C@H](C(=O)O)[C@@H](O)[C@H](O)[C@H]2O)C=C[C@H]3[C@H]1C5 — AUC(0-t) (LC-MS/MS; male Sprague-Dawley rat, whole blood; intraperitoneal, 10 mg/kg of heroin, up to 180 min): 0.0102 ± 0.00267 µg·h/mL
C#Cc1ccc2c(c1)C(c1ccccn1)=NCc1c(-c3cnco3)ncn1-2 — AUC(0-t) (Sprague Dawley rat, plasma; oral, 2 mg/kg, 0 to 24 h, cassette dosing): 2.16 µg·h/mL
Cl.Cn1c(=O)n(CCCCN2CCC3(CC2)OCc2ccccc23)c2ccccc21 — AUC(0-t) (rat, male, brain; iv, 10 mg/kg, up to 24 h): 3040 ± 267 ng·h/g
CN1CC[C@]23c4c5ccc(O[C@@H]6O[C@H](C(=O)O)[C@@H](O)[C@H](O)[C@H]6O)c4O[C@H]2[C@@H](O)C=C[C@H]3[C@H]1C5 — AUC(0-t) (Sprague-Dawley rat, whole blood; intraperitoneal, 10 mg/kg heroin, up to 180 min, single heroin dose alone): 3.45 ± 0.33 µg·h/mL
CC(=O)c1c([O-])cc(C)oc1=O.[Na+] — AUC(0-t) (Wistar rat, male, serum; oral, 200 mg/kg, no CYP inhibitor): 2790 ± 132 µg·h/mL

Excerpt of the above:
CN1CC[C@]23c4c5ccc(O[C@@H]6O[C@H](C(=O)O)[C@@H](O)[C@H](O)[C@H]6O)c4O[C@H]2[C@@H](O)C=C[C@H]3[C@H]1C5 — AUC(0-t) (Sprague-Dawley rat, whole blood; intraperitoneal, 10 mg/kg heroin, up to 180 min, single heroin dose alone): 3.45 ± 0.33 µg·h/mL
CC(=O)c1c([O-])cc(C)oc1=O.[Na+] — AUC(0-t) (Wistar rat, male, serum; oral, 200 mg/kg, no CYP inhibitor): 2790 ± 132 µg·h/mL
